Values quoted from earlier work that unrelated publications cite.
Compare with care: the assays were run in different laboratories. ± marks the error that the study gave.
Ar: Androgen receptor (Ar, Rattus norvegicus, UniProt P15207)
UniProt P15207, sequence (whole entry, looked up): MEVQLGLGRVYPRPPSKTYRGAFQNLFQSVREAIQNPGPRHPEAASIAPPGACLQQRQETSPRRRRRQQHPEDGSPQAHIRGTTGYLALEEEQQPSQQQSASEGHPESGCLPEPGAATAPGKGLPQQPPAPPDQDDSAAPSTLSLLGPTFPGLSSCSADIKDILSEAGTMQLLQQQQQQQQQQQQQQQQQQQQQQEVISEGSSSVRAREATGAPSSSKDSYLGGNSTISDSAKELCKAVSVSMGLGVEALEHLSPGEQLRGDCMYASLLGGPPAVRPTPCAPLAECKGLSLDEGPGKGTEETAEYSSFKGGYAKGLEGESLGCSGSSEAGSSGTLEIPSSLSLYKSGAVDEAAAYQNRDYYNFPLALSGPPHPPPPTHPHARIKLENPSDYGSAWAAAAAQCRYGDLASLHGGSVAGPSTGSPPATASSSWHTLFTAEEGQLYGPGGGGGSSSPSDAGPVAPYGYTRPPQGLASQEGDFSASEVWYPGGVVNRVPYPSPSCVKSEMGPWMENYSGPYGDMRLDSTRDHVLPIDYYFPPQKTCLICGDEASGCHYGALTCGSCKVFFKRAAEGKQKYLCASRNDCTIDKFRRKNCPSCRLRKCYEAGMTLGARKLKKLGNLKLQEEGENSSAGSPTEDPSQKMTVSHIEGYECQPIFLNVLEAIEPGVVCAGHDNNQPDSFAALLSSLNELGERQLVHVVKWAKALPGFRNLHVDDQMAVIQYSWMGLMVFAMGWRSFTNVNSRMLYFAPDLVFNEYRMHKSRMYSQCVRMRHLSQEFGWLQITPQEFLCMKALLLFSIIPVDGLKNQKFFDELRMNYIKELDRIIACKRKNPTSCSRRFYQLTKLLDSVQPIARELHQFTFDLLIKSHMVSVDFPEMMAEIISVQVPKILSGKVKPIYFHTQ
UniProt P42336, sequence (whole entry, unmodified, looked up): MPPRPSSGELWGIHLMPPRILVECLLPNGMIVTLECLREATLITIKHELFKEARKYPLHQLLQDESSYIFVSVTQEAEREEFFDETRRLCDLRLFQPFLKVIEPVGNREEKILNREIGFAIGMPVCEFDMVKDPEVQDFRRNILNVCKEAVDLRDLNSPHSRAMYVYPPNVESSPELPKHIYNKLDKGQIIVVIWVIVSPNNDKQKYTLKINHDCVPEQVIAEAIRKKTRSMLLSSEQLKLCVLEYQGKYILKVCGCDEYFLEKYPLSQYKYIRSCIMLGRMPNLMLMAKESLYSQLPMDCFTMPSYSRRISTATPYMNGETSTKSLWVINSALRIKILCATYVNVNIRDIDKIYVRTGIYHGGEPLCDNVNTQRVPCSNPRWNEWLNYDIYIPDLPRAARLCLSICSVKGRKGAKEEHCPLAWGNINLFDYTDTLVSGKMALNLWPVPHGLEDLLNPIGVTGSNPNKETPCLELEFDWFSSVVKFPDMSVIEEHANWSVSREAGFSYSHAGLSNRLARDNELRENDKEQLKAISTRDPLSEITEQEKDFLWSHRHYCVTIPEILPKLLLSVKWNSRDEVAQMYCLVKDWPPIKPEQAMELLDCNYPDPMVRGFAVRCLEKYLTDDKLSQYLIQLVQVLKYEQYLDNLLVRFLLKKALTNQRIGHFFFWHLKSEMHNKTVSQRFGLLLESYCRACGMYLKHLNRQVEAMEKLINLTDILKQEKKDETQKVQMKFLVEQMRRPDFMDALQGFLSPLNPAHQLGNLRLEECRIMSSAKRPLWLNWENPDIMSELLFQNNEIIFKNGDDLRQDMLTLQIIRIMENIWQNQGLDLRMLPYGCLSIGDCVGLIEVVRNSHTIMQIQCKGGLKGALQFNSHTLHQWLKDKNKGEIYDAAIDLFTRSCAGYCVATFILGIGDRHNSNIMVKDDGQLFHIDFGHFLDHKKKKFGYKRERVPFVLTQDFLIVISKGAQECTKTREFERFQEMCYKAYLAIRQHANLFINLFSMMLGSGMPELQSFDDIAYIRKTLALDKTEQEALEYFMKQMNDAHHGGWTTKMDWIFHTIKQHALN

SMILES | target or system | assay | system | conditions | scale | measurement | value
CCCCCc1cc(O)c2c(c1)OC(C)(C)[C@@H]1CCC(C)=C[C@@H]21 | CYP2D6 human |  | human liver microsomes | 10 µM |  | inhibition | inhibited
CN/C(=N/CCSCc1nc[nH]c1C)NC#N | OCT2 |  |  |  |  | Ki | 124000 nM
O=C(O)C(F)(F)C(F)(F)C(F)(F)C(F)(F)C(F)(F)C(F)(F)C(F)(F)C(F)(F)C(F)(F)F | CYP2C19 | inhibitor |  | Tox21 screening |  | IC50 | inactive
O=c1c(-c2ccc(O)cc2)coc2cc(O)ccc12 | Ar | validation reference set |  | concentration not given |  | AR binding call | inactive
CC(=O)O[C@@]12CO[C@@H]1C[C@H](O)[C@@]1(C)C(=O)[C@H](OC(=O)C3CC3)C3=C(C)[C@@H](OC(=O)[C@H](O)[C@H](C=C(C)C)NC(=O)OC(C)(C)C)C[C@@](O)([C@@H](OC(=O)c4ccccc4)[C@H]21)C3(C)C | CFPAC-1 | cytotoxicity |  |  |  | IC50 | 0.71 nM
COCCN(CCOC)N=O | Salmonella typhimurium |  | TA100 | added: rat liver S9 |  | Ames mutagenicity | positive
O=C(O)C(F)(F)C(F)(F)C(F)(F)C(F)(F)C(F)(F)C(F)(F)F | CYP2C19 | inhibitor |  | Tox21 screening |  | IC50 | inactive
CCN(CC)N=O |  | fingerprint mutation, item: C>T substitution | rat, liver | concentration not given |  | mutation frequency | increased
CC(C)(O/N=C(\C(=O)N[C@@H]1C(=O)N2C(C(=O)[O-])=C(C[N+]3(CCNC(=O)c4ccc(O)c(O)c4Cl)CCCC3)CS[C@H]12)c1csc(N)n1)C(=O)O | OXA-23 | hydrolysis by enzyme, substrate |  |  |  | Km | 4.8 mM
C=C[C@@H]1C[C@]1(NC(=O)[C@@H]1C[C@@H]2CN1C(=O)[C@H](C(C)(C)C)NC(=O)O[C@@H]1C[C@H]1CCCCCc1nc3ccc(OC)cc3nc1O2)C(=O)NS(=O)(=O)C1CC1 | human P-glycoprotein |  | LLC-PK1 transfected with human P-glycoprotein | 1 µM | baseline: B-A over A-B permeability | efflux ratio | ~100
CCCCCc1cc(O)c(C/C=C(\C)CCC=C(C)C)c(O)c1 | CYP2B6, human | enzyme activity, inhibitor | human liver microsomes | 10 µM |  | inhibition | inhibited
O=c1c(-c2ccc(O)cc2)coc2cc(O)cc(O)c12 | Ar |  |  | concentration not given |  | activity class | inactive
Nc1ncc(-c2nc(N3CCOCC3)nc(N3CCOCC3)n2)c(C(F)F)n1 | PIK3CA (Homo sapiens, UniProt P42336, E542K) | KinomeScan competition binding |  | 10 µM |  | remaining binding | 0%
O=C1N[C@@H]2CCCC[C@H]2N[C@H]1c1c[nH]c2ncccc12 | COLO 320 ABCB1-resistant colon | cytotoxicity |  |  |  | IC50 | > 100000 nM
NC1CCCCC1N.O=C([O-])C(=O)[O-].[Pt+2] (stereo not drawn) |  | item: free platinum | mice, plasma ultrafiltrate | intravenous, 8.34 mg Pt/kg |  | half-life alpha | 6.72 min
COc1cc(Cl)cc(CC(=O)Nc2cnccc2C)c1 | main protease (Mpro) |  |  | 20 µM |  | inhibition | 24.6%
C=C(C)[C@@H]1CCC(C)=C[C@H]1c1c(O)cc(CCCCC)cc1O | CYP1A2, human | enzyme activity, inhibitor | human liver microsomes | 10 µM |  | inhibition | inhibited
COC(=O)[C@@H]1C[C@H](OC(C)=O)C(=O)[C@H]2[C@@]1(C)CC[C@H]1C(=O)O[C@H](c3ccoc3)C[C@]21C | kappa opioid receptor S211A |  |  |  |  | Ki | 38 ± 5 nM
CN1COCN(Cc2cnc(Cl)s2)/C1=N\[N+](=O)[O-] |  |  | test soil | 1.12 mg/kg nominal, 0 days |  | measured soil concentration | 0.94 mg/kg dry soil
O=C(O)C(F)(F)C(F)(F)C(F)(F)C(F)(F)C(F)(F)C(F)(F)C(F)(F)F |  |  | blood |  |  | blood-to-plasma ratio | 0.55
CCCCCOc1ccc(-c2ccc(-c3ccc(C(=O)N[C@H]4C[C@@H](O)[C@@H](O)NC(=O)[C@@H]5[C@@H](O)[C@@H](C)CN5C(=O)[C@H]([C@@H](C)O)NC(=O)[C@H]([C@H](O)[C@@H](O)c5ccc(O)cc5)NC(=O)[C@@H]5C[C@@H](O)CN5C(=O)[C@H]([C@@H](C)O)NC4=O)cc3)cc2)cc1 |  |  | healthy volunteers | 200 mg day 1, 100 mg days 2-8 |  | AUC(0-24) | 104 µg·h/mL

A few entries again:
SMILES | target or system | assay | system | conditions | scale | measurement | value
O=C(O)C(F)(F)C(F)(F)C(F)(F)C(F)(F)C(F)(F)C(F)(F)C(F)(F)C(F)(F)C(F)(F)F | CYP2C19 | inhibitor |  | Tox21 screening |  | IC50 | inactive
O=c1c(-c2ccc(O)cc2)coc2cc(O)ccc12 | Ar | validation reference set |  | concentration not given |  | AR binding call | inactive
